Assay results gathered from unrelated publications.
Every numbered part comes from another study and shows a few of its results, in no order. Positions count from the first letter of the parent shown.

Sample 1
Target: Prothrombin, mature alpha-thrombin (F2, Homo sapiens, UniProt P00734)
Method: aptamer microarray, sandwich
Molecule type: DNA with 2'F-ANA
Medium: in vitro
Concentration: 200 nM
Setting: whole 15-mer aptamer, many near background
Together with: Cy3 exosite-II aptamer, 400 nM
Reading: higher = stronger binding
Quantity: mean fluorescence intensity
Strand: GGTTGGTGTGGTTGG
2'F-ANA at 1 2 5 6 7 11: 50.2 a.u.
2'F-ANA at 1 4 6 7 8 12 14 15: 67.3 a.u.
2'F-ANA at 1 2 7 8 9 10 11 12 13 15: 70.8 a.u.
2'F-ANA at 5 7 8 9: 88.3 a.u.
2'F-ANA at 2 5 7 10: 47.3 a.u.
2'F-ANA at 4 11 12 13 15: 413 a.u.
2'F-ANA at 1 2 5 7 9 10 12 13 14 15: 54.5 a.u.
2'F-ANA at 2 3 5 6 9 11 12: 168 a.u.

Sample 2
Target: Receptor tyrosine-protein kinase erbB-4 (ERBB4, Homo sapiens, UniProt Q15303)
Chain of UniProt Q15303 (whole entry, looked up): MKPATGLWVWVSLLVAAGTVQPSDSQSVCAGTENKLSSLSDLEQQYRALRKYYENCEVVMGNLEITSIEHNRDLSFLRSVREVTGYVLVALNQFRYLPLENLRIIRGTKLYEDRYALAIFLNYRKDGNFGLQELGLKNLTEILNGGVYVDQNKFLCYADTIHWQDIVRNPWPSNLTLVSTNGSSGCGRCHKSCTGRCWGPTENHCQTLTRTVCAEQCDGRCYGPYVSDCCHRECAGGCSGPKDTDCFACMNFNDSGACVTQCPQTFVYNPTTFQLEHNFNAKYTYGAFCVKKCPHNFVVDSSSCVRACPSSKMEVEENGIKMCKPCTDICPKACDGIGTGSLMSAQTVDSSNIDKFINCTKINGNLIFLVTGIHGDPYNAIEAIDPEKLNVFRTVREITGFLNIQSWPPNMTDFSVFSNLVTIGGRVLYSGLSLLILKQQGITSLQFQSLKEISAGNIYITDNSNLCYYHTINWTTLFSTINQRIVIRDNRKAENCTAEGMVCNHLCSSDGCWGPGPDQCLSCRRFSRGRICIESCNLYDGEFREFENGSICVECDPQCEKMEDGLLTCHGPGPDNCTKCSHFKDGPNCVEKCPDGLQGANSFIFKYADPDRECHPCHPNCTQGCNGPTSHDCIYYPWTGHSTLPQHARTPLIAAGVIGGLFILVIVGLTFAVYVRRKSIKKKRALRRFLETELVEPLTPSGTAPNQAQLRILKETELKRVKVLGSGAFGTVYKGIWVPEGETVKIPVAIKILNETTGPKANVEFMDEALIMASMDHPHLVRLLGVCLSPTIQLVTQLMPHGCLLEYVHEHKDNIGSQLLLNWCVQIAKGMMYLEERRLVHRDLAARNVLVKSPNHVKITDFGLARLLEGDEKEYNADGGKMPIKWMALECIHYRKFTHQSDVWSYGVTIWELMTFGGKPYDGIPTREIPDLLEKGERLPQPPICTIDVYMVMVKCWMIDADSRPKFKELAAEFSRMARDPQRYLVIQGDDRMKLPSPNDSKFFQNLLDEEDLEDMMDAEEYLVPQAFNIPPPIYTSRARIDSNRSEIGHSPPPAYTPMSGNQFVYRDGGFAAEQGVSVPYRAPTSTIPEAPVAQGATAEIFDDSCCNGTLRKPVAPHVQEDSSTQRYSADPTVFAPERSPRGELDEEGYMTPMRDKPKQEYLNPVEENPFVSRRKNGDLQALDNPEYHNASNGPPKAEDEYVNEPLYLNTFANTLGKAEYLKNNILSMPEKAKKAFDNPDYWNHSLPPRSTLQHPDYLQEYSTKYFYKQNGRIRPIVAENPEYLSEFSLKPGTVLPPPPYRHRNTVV
Read-out: enzyme activity
Action: inhibitor
Concentration: 0.5 µM
Relative to: control
Quantity: remaining activity
COc1ccc(CNC(=O)Nc2ncc([N+](=O)[O-])s2)cc1: 95.2%
Oc1ccc(-c2nc(-c3ccncc3)c(-c3ccc(F)cc3)[nH]2)cc1: 83.1%
Cc1cccc(-c2[nH]c(C(C)(C)C)nc2-c2ccc3c(c2)OCO3)n1: 83.1%
CN(C)c1ccc(C=C2C(=O)Nc3ccccc32)cc1: 97.7%
Cn1sc(=O)n(Cc2ccccc2)c1=O: 104%
O=c1c2ccccc2[nH]c(=S)n1CCN1CCC(=C(c2ccc(F)cc2)c2ccc(F)cc2)CC1: 87.4%
CC(C)[C@H](CO)Nc1nc(Nc2cc(N)cc(Cl)c2)c2ncn(C(C)C)c2n1: 131%
Cc1ccc(Nc2nccc(N(C)c3ccc4c(C)n(C)nc4c3)n2)cc1S(N)(=O)=O: 86.9%
Cn1c2ccccc2c2c3c(c4c5ccccc5n(CCC#N)c4c21)CNC3=O: 100%
OCC(O)CCON=C1C(c2c(O)[nH]c3ccccc23)=Nc2ccccc21 (stereo not shown): 97.5%
NCCNc1ncc(C(N)=O)c(Nc2cccc(C(F)(F)F)c2)n1: 88.5%
O=C(CCCc1ccc(-c2ccccc2F)cc1)Nc1ccc(O)cc1: 107%
COc1cc2nccc(Oc3ccc(NC(=S)NC(=O)c4ccccc4C)cc3)c2cc1OC: 114%
O=C1NC(=O)C(c2cn(CCCn3ccnc3)c3ccccc23)=C1Nc1ccccc1: 59.6%

Sample 3
Target: ATF1, bZIP domain (human)
Method: DHFR protein complementation
Medium: yeast
Setting: single substitutions, most at no-binding floor
Relative to: wild-type JUN-FOS pair
Reading: higher = stronger binding
Quantity: binding fitness
Starting sequence: JUN, bZIP domain (human); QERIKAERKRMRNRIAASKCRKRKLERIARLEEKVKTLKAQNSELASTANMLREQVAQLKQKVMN; partner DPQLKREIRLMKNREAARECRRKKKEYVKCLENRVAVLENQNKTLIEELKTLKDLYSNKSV
E44T: -1.54 natural log
L31E: -1.54 natural log
E44L: -1.51 natural log
A40F: -1.5 natural log
Q55F: -1.45 natural log
Q41F: -1.46 natural log
A46T: -1.51 natural log
R30P: -1.44 natural log

Further values, each from its own experiment
CC(=O)Nc1c(F)cc(C(=O)N[C@H]2CC[C@H](O)CC2)cc1O[C@@H](C)c1ccccc1 — tubulin stain change (HEK293T; high-content imaging; concentration not given, 24 h, recommended concentration): 78%

Excerpt of the above (further values, each from its own experiment):
CC(=O)Nc1c(F)cc(C(=O)N[C@H]2CC[C@H](O)CC2)cc1O[C@@H](C)c1ccccc1 — tubulin stain change (HEK293T; high-content imaging; concentration not given, 24 h, recommended concentration): 78%
